Measurements from different studies.
Organism: Staphylococcus epidermidis

Structure (SMILES) = CC1CCN(CCCN2/C(=C/c3cc(/C=C/c4c[nH]c5ccccc45)[n+](C)c4ccccc34)Sc3ccccc32)CC1; assay = microbial growth, broth dilution; test system = ATCC12228; measurement = MIC; value = 16 µg/mL
Structure (SMILES) = C[C@H]1COc2c(N3CCN(C)CC3)c(F)cc3c(=O)c(C(=O)N[C@@H](CCCNC(=N)N)C(=O)N[C@@H](Cc4ccc(-c5ccccc5)cc4)C(=O)N[C@@H](CCCNC(=N)N)C(=O)N[C@@H](Cc4ccc(-c5ccccc5)cc4)C(=O)N[C@@H](CCCNC(=N)N)C(N)=O)cn1c23; assay = broth microdilution; test system = ATCC 700565; scale = baseline: MIC of unconjugated components; measurement = fold MIC improvement; value = 2.5 fold
Structure (SMILES) = Cc1cc(/C=C2\Sc3ccccc3N2CCCN2CCCC2)c2ccccc2[n+]1C; assay = microbial growth, broth dilution; test system = ATCC12228; measurement = MIC; value = 4 µg/mL
Structure (SMILES) = CCCCN(CCCC)CC(O)COc1c2ccoc2c(OC)c2oc(CC)cc(=O)c12 (stereo not shown); assay = broth microdilution; test system = ATCC 35984; conditions = 19 h, 35 °C; measurement = MIC; value = 128 µg/mL
Structure (SMILES) = Oc1c(Br)cc(Br)c2nc3cc(SC(F)(F)F)ccc3nc12; assay = broth microdilution; test system = MRSE 35984; measurement = MIC; value = 0.1 µM
Structure (SMILES) = O=C(O)CN1C(=O)/C(=C/c2ccc(-c3ccc(N(c4ccccc4)c4ccccc4)cc3)cc2)NC1=S; assay = broth microdilution; test system = ATCC 12228; measurement = MBC/MIC ratio; value = 2
Structure (SMILES) = Oc1c(Br)cc(Br)c2nc3cc(I)ccc3nc12; assay = microbial growth, broth dilution; test system = 12228; measurement = MIC; value = 0.08 µM
Structure (SMILES) = Oc1c(Br)ccc2cccnc12; assay = microbial growth, agar dilution; test system = ATCC12228; measurement = MIC; value = 35.7 µM
Structure (SMILES) = Oc1c(Br)c(Cl)c(Br)c2nc3c(C(F)(F)F)cc(C(F)(F)F)cc3nc12; assay = broth microdilution; test system = MRSE 35984; measurement = MIC; value = 0.2 µM
Structure (SMILES) = CCCCCCCCCCCC[S+]([O-])CC1OC(OC2C(N)CC(N)C(OC3OC(CN)C(O)CC3N)C2O)C(O)C(N)C1O (mixture of isomers); measurement = MIC; value = 4.7 µg/mL

Excerpt of the above:
Structure (SMILES) = CCCCCCCCCCCC[S+]([O-])CC1OC(OC2C(N)CC(N)C(OC3OC(CN)C(O)CC3N)C2O)C(O)C(N)C1O (mixture of isomers); measurement = MIC; value = 4.7 µg/mL
